Results gathered from unrelated publications.
Protocols differ between the studies behind these lines. Values joined by “and” are separate records of one study, mostly repeats; a detail may differ.
Target: MAP kinase-activated protein kinase 5 (MAPKAPK5, Homo sapiens, UniProt Q8IW41)
Residues used in one study (Q8IW41 1-473): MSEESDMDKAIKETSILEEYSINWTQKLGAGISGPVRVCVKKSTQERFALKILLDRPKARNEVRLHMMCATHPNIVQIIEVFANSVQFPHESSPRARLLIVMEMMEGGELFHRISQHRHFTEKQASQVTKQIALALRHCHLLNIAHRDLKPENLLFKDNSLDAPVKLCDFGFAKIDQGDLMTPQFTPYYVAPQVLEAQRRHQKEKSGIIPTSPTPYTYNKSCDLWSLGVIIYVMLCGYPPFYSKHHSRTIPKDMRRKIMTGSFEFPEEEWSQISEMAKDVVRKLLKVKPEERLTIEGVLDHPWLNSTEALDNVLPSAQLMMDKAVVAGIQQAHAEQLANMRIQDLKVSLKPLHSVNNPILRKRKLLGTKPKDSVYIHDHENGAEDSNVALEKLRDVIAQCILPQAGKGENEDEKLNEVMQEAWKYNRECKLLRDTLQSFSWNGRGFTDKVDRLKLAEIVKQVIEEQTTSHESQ

| Structure (SMILES) | test | system | conditions | scale | endpoint | result |
| --- | --- | --- | --- | --- | --- | --- |
| Cc1cccc(O[C@H]2CCC[C@@H](C(C)CNCc3ccncc3)C2)c1 (relative stereo) | enzyme activity, inhibitor | – | 10 µM | – | inhibition | 2% |
| COc1cc(Nc2nccc(-c3cnn4nc(OC)ccc34)n2)cc(C(F)(F)F)c1 | binding, competition with immobilised ligand | – | 1 µM | – | remaining binding | 78% |
| Cc1cnc2nc1Nc1cccc(c1)COC/C=C/COCc1cc(ccc1OCCN1CCOCC1)N2 | binding | – | 0.1 µM | – | remaining binding | 89% |
| N[C@H]1CC[C@H](Nc2nccc(-c3cccnc3Oc3ccc(NC(=O)NC4CC4)c4ccccc34)n2)CC1 | kinobead competition pulldown | HEK293/HCT116 lysate mixture | 10 µM, 1 h, 4 °C | lower = stronger competition | log2 LFQ intensity | 26.1 and 26 and 25.9 |
| CN1CC[C@@H](COc2cnc(C#N)cc2-c2ccn3nc(NC(=O)C4CC4)cc3c2)C1 | enzyme activity, inhibitor | – | 1 µM | – | inhibition | 0% |
| Nc1nc(Nc2ccccc2)sc1C(=O)c1ccccc1 | enzyme activity, inhibitor | – | 10 µM | – | remaining activity | 72% |
| CNC(=O)C[C@H](Cc1ccc(C#N)cc1)NC(=O)c1cc(-c2ccc(CN[C@H](C)c3ccc(C)cc3)o2)ccc1Cl | enzyme activity, inhibitor | – | 1 µM | – | activity vs control | 84% |
| O=C(O)CCC(=O)c1cccc(NS(=O)(=O)c2c[nH]c3ncccc23)c1 | kinase activity, radiometric | – | 10 µM | – | remaining activity | 104% |
| Cc1ccc(C)c(-c2ccc3nc(NC(=O)C4CCCCC4)nn3c2)c1 | enzyme activity, Dundee kinase panel | – | 10 µM | – | remaining activity | 63% |
| COc1c(OCCCN2CCOCC2)ccc2c1N=C(NC(=O)c1cnc(N)nc1)N1CCN=C21 | kinase activity, inhibitor | – | 1 µM | relative to: untreated control | remaining activity | 129% |
| Cc1cccc(-c2ccc3nc(NC(=O)C4CCOCC4)nn3c2)c1 | enzyme activity, Dundee kinase panel | – | 10 µM | – | remaining activity | 60% |
| COCC12C(=O)NC3C4(C(OC)CC1O)C1CC5(O)C(OC)C(O)C(OC(C)=O)(C1C5OC(=O)c1ccccc1)C3(O)C(OC)C24 (stereo not shown) | kinase activity, inhibitor, ProQinase kinase profiling | – | 25 µM | relative to: control | remaining activity | 99% and 103% |
| O=C=[N][Ru-4]123([n]4c5ccc(O)cc5c5c6c(c7cc(F)c[n+]1c7c54)C(=O)NC6=O)[S+]1CC[S+]2CC[S+]3CC1 (stereo not shown) | enzyme activity | – | 100 nM, human enzyme, with: 10 µM ATP | relative to: untreated | remaining activity | 86% |
| Nc1ncc(-c2cc(-c3cnn(CC(F)(F)F)c3)ncc2F)nc1C(=O)NC1CNCC(F)C1 (stereo not shown) | enzyme activity | – | 1 µM | relative to: DMSO control | remaining activity | 107% |
| CC(C)=CC1OC(C)(C)C2C=C3C(=O)C(Cl)=CC(O)C3C3C(O)C4OC4C(=O)C132 (stereo not shown) | cell-free assay, competition with immobilised ligand | – | 10 µM | – | remaining binding | 65% |
| Cc1ccc(-c2c(/C=C(\C#N)C(=O)NC(C)C)n(CCCO)c3ncnc(N)c23)cc1 | cell-free assay, competition with immobilised ligand | – | 1 µM | – | remaining binding | 100% |
| NC(=O)[C@@H](O)C[C@H]1CCc2sc3ncnc(O[C@H]4CC[C@H](N5CCOCC5)CC4)c3c21 | enzyme activity, inhibitor | – | 10 µM | – | inhibition | 2% |
| CCN1CCN(Cc2ccc(C(=O)Nc3ccc(C)c(NCc4cnc5[nH]ccc5c4OC)c3)cc2C(F)(F)F)CC1 | binding, competition with immobilised ligand | – | 1 µM | – | remaining binding | 100% |
| C=CC(=O)Nc1cccc(-c2cnc3[nH]cc(C(=O)NC(C)(C)C)c3n2)c1 | kinase activity | – | 0.1 µM | – | inhibition | 5% and 4% |

Excerpt of the above:
| Structure (SMILES) | test | system | conditions | scale | endpoint | result |
| --- | --- | --- | --- | --- | --- | --- |
| Cc1ccc(C)c(-c2ccc3nc(NC(=O)C4CCCCC4)nn3c2)c1 | enzyme activity, Dundee kinase panel | – | 10 µM | – | remaining activity | 63% |
| Cc1cccc(-c2ccc3nc(NC(=O)C4CCOCC4)nn3c2)c1 | enzyme activity, Dundee kinase panel | – | 10 µM | – | remaining activity | 60% |
